Assay results pooled from the literature.
A part holds a random share of what one study measured. Positions count from the first letter of the parent shown.

Block 1 — technique: DHFR PCA, deep sequencing; matrix: yeast; added: (+)-ABA 2500 µM; baseline: wild-type fitted maximum; direction: higher = stronger binding
Target: ABI1, truncated, D143A, DHFR fusion (Arabidopsis thaliana)
Notes: methotrexate growth selection, single substitutions
Starting sequence: PYL1, truncated, DHFR fusion (Arabidopsis thaliana); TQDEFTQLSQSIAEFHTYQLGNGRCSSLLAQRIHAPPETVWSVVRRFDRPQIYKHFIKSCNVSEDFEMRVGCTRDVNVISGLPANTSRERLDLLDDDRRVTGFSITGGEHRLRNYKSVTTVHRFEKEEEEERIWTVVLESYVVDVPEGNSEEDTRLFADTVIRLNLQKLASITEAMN; partner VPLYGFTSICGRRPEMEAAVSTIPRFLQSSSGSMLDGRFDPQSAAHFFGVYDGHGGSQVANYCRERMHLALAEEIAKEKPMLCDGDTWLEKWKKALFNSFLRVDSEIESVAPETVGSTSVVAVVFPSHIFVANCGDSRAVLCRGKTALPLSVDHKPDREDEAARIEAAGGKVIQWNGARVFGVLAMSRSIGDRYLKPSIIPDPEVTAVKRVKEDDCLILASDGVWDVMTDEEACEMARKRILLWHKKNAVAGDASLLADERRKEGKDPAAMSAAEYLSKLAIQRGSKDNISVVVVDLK
Substitution | relative binding score [%]
I79G | 88.6
H55P | 97
F47Q | 20.1
R49K | 94.9
I172H | 95.1
F66Y | 95.5
E129Q | 99.9
H55C | 98.8
T73Y | 96.5
Q2R | 94.8
H34K | 98.8
K54Q | -6.37
K168D | 76.1
S171I | 93.7
R45W | 2.01
V76T | 88.9
D48Q | 81

Block 2 — target: CREBRF, bZIP domain (human); technique: DHFR protein complementation; matrix: yeast; baseline: wild-type JUN-FOS pair; direction: higher = stronger binding
Notes: single substitutions, most at no-binding floor
Starting sequence: JUN, bZIP domain (human); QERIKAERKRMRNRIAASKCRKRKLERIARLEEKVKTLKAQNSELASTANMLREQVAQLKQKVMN; partner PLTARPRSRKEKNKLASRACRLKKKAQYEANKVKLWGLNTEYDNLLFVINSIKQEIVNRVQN
Substitution | binding fitness [natural log]
E44Q | -1.47
T48E | -1.52
E54C | -1.54
Q41L | -1.48
S47D | -1.54
Q55G | -1.46
I28C | -1.4
Q41S | -1.43
E33S | -1.47
K39E | -1.48
A57W | -1.06
L52P | -1.52
K36E | -1.49
L38I | -1.6
E44G | -1.4
V35Q | -1.47
N42V | -1.47
A40C | -1.45
T48G | -1.48
K34D | -1.32

Block 3 — technique: RNAcompete; form: RNA; matrix: in vitro; tested at: 20 nM; notes: 7-mer, probes averaged, single round; baseline: mean of 7-mers; direction: higher = stronger binding
Target: PABPC1L2, full length, GST fusion (mouse, UniProt A0ABA7IW68)
Construct (chain): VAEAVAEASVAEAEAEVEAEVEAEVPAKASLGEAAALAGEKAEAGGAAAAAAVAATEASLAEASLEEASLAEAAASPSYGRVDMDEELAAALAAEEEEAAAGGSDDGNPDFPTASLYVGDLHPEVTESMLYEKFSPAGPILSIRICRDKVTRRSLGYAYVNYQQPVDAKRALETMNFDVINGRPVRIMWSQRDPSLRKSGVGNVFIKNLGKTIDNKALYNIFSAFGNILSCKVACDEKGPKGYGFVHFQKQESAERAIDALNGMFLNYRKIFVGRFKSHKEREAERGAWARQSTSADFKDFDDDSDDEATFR
Strand | 7-mer Z-score
UAACGUU | -0.28
AGACGAG | 0.00979
AGCUUAA | -0.0881
CCGGCUC | -0.333
UGUAACC | -0.155
CAAUUCC | -0.213
CCUCAGA | -0.215
GUCCCAG | -0.204
UGCGUUA | -0.356
GCAAAAA | 15.9
UUAUUUC | -0.306
AUUGGGG | 0.365
UUAAACA | 1.14
CUUAGUG | -0.275
GUAAACC | -0.15
CGUUAGC | -0.364

Block 4 — target: CCNB2, cyclin fold, Cln2 fusion (human); technique: yeast growth competition, sequencing; matrix: yeast; notes: weak parent motif; baseline: not given; direction: higher = stronger binding
Starting sequence: SCAPER docking peptide (human); SNARRSLNFGGST; partner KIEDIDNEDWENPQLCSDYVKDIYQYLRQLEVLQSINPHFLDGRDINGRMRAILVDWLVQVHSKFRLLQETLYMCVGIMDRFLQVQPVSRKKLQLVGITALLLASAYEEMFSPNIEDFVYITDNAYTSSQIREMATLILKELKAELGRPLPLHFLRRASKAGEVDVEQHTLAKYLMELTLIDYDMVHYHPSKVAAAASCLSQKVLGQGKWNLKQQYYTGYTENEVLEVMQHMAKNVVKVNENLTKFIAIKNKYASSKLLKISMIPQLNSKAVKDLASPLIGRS
Substitution | normalised enrichment score
SNARRSLNFGGSM [T13M] | 0.0602
SNARRSLCFGGST [N8C] | -0.381
SNARCSLNFGGST [R5C] | -0.0475
SNTRRSLNFGGST [A3T] | 0.07
SNARRSLNFGIST [G11I] | 0.0407
SNARRSLNFGGSF [T13F] | 0.421
SNARRSLNFGGSE [T13E] | -0.0886
SGARRSLNFGGST [N2G] | 0.246
SNARRSSNFGGST [L7S] | 0.251
SNARRSLNFGYST [G11Y] | 0.12
SNARRSLNMGGST [F9M] | 0.627
SNARRSLVFGGST [N8V] | 0.0866
SNARRSLNFGGTT [S12T] | 0.0649
SNARRYLNFGGST [S6Y] | 0.277
SNARRSDNFGGST [L7D] | 0.153
SNAFRSLNFGGST [R4F] | -0.338
SNARRSLWFGGST [N8W] | 0.181
SNARRSLKFGGST [N8K] | 0.607
SNARRSLNKGGST [F9K] | 0.293
SAARRSLNFGGST [N2A] | 0.298
SNARRSLNFWGST [G10W] | 0.625
SNARRQLNFGGST [S6Q] | 0.297
FNARRSLNFGGST [S1F] | 0.852
SNARRSLNPGGST [F9P] | 0.0742
SNARRSLNEGGST [F9E] | -0.29

Block 5 — technique: RNA Bind-n-Seq; form: RNA; matrix: in vitro; tested at: not given; notes: RNA with constant flanks, ends assumed; baseline: input RNA pool; direction: higher = stronger binding
Target: RING finger protein unkempt homolog, zinc fingers 1-6, GST-SBP tag (UNK, Homo sapiens, UniProt Q9C0B0, residues 30-357)
UniProt Q9C0B0, sequence (30-357, looked up): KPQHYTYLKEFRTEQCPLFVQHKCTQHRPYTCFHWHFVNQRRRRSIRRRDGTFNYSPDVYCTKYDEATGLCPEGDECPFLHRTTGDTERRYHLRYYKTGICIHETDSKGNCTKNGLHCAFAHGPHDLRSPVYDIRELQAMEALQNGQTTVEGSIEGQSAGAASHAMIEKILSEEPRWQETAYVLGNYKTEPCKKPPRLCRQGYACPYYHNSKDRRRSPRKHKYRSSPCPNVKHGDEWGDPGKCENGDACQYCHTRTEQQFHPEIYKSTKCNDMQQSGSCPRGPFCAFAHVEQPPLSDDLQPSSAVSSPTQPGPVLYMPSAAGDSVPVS
Strand | bound/input enrichment
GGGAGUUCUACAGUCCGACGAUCAAUGUGGAAACAGUAGAAUAUAAGAACAUUUGUUUCACAGUAUGGGAUGUUGGUGGUCAAGACCGAAUUAGGCCUCUCUGGAAGCAUUACUUCCAGAAUACCCAGGGUCUUAUUUUUGUGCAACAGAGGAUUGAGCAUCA | 0.583 ratio
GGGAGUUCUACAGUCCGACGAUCCAGCUGCUUACACAGGAUGUAGAAAAAUUUUGUAACAGUGUAGUCGAUCUGUAUUCAAAUCUCCGUAAGCCAUUUUUAGACAUAGUUUUAUAUAUUUUCAAGUUAACAAGUGCAAUUGGACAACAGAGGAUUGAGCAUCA | 114 ratio
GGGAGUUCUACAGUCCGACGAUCAAAGUUUCAAACACUUUCACUUACGCCAGAGUACUGUAAAAUCUAUGUCUUUUCCAGCGUCCGCAUUAAGCCGGGCGCCGUUUGCCGUGUCCUUCGUUCCACGAGCCCUUUGGUUUUUACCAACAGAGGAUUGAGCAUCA | 0.125 ratio
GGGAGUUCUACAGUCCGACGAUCUUCAGGACUUUUCUUGGGGUUUCAGAAUGGGUUUAUAUGAUUUUCUUUAUUAUUUUUUGGCCGUUUUAUUUAUUCUAUCAGUCUUUUUAACAAAUGUUUAUUGCUGCACCUCCUCCCCAGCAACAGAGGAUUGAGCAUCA | 30.4 ratio
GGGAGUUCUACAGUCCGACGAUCAUGUAUCUUUCAUGAUUAAUGUGUGUGUGGGCAGCACCCUAAUCUAGAAUUCAUUCAUAAAACCGUGUUCCUACAUAGAAAAAUUUAGGAAGAGAAAUUACCCAUUGUGGUAAAGUUAUCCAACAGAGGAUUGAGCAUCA | 14 ratio
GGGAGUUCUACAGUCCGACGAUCUUAUAGGAUUCCAAACCCAUGAGACAUGUUUUACAGGAAAUGAAAGCAUGAAUACUCAGGCCGCUGGAAGUGAGUUAAACAUGACAGGGACAGGUGGCAUUAAAACUGAGUCUAAAAGCUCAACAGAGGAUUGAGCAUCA | 0.293 ratio
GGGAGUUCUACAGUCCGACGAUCCCCUAAACUGCAUAAUUCUGAAGUUAUAUUUCCUAUACCAUUUCCGUAAUUCUUAUUCCAUAUCCGAAAACUUUGUUAGGCCAAAGACAAAUAGUAGGCAAGAUGGCACAGGGCAUGAAACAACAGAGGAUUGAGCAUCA | 0.507 ratio
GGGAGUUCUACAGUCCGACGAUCUACUUAAAUGAAAUAAAACCUCCCAUCAUACACUAUGACCUCAAACCAGGUAAUAUCCUUUCCGUAAAUGGUACAGCAUGUGGAGAGAUAAAAAUUACAGAUUUUGGUCUUUCCAAGAUCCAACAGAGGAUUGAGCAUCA | 0.199 ratio

Excerpt of the above (block 2):
Substitution | binding fitness [natural log]
K36E | -1.49
A40C | -1.45
K39E | -1.48
Q55G | -1.46
E44G | -1.4
V35Q | -1.47
K34D | -1.32
E44Q | -1.47
